Published values gathered from unrelated publications.
Every numbered part comes from another study and shows a few of its results, in no order.

Series 1 — technique: protein binding microarray; form: double-stranded DNA, one strand shown; matrix: in vitro; concentration: not given; baseline: not given; direction: higher = stronger binding
Target: Histone acetyltransferase KAT6A, winged helix 2, GST fusion (KAT6A, Homo sapiens, UniProt Q92794, residues 85-181)
Setting: 8-mer, flanks averaged, mean of 2 arrays, mostly near background
Residues (chain): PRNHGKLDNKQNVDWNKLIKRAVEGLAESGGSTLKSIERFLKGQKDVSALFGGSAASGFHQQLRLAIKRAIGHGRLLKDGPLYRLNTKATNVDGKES
Strand | E-score
CGACCCGC | 0.135
CACCCGCG | 0.217
GCTCCTAC | 0.0609
GCACATGA | -0.184
CGCATGAG | -0.0391
CCTACTAG | -0.179
ATGGTAGA | -0.179
CGTACCCA | -0.0542
ACGGAACG | -0.0144
GCGAAGAC | -0.00796
CTGCATGA | -0.19
GCGATGAA | 0.133
AAGTCCTG | -0.0172
GAGTGCAC | -0.000295
TCCACAAA | 0.212
CTGCACCC | -0.0748
AGGGCCAA | -0.025
CTGAGATA | -0.0809
CAGAAGGA | 0.0314

Series 2 — technique: protein-binding microarray; form: double-stranded DNA, one strand shown; matrix: in vitro; concentration: 250 nM; setting: 60-bp whole probe; with: salmon DNA 0.4 mg/ml; baseline: random background probes; direction: higher = stronger binding; shared flanks, not repeated: GCCTAGCAC … GTCTTGATTCGCTTGACGCTGCTG
Target: Interferon regulatory factor 5, full length, phosphomimetic (IRF5, Homo sapiens, UniProt Q13568-2, residues 1-514, K96S/S451D/S453D/S456D/S462D)
Strand | log fluorescence [z-score]
GGCCCAGGAGGAGGCCCCTCGTGCTAG | -0.688
TTAGGACTGGGGAATGGGTTAGTGCTA | -0.403
GACGGTATCGGGACTGGGGAAGTGCTA | 1.27
CCAGCAGGGTTAGGCTTGCTGTGCTAG | -0.748
CATCATTTTTCCCTCTGGAAGTGCTAG | 1.08
GACGGTTTCCTTATCCGGACGTGCTAG | 0.94
TTAGGACTGGGACTGGGATAGTGCTAG | -0.531
GACGGACAGGGGACTGGGGACGTGCTA | -0.554
GACGGTATCCTTCTACTGACGTGCTAG | 0.115
ACCTATAGGTTGTTTCTAATAGTGCTA | 0.739
GACGGAGTGGGGTATCGGGACGTGCTA | 0.0846
GGCGATTTCAGTTTCGAGACGTGCTAG | 7.32

Series 3 — technique: RNA Bind-n-Seq; form: RNA; matrix: in vitro; concentration: 200 nM; setting: whole 134-nt RNA, ends assumed; with: 150 mM KCl; baseline: input library; direction: higher = stronger binding
Target: Ras GTPase-activating protein-binding protein 1, full length (G3BP1, Homo sapiens, UniProt Q13283)
Chain of UniProt Q13283 (whole entry, looked up): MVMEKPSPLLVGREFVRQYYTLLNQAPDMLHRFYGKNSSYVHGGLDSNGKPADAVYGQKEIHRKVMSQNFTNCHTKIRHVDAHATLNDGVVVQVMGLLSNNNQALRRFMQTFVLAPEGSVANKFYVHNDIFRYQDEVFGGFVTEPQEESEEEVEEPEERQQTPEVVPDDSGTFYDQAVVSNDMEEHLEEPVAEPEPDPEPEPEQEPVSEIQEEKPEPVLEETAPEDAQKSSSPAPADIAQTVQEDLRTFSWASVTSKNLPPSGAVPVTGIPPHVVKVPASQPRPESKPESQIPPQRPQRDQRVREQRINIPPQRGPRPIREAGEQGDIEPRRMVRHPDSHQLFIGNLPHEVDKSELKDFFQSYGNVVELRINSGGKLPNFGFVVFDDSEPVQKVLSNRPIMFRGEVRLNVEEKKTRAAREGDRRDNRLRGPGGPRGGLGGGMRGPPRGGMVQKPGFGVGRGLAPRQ
Shared flanks, not repeated: GGGAGUUCUACAGUCCGACGAUC … UGGAAUUCUCGGGUGUCAAGG
Strand | log2 enrichment
GUCCUGUGCUACACAUCGUAUGUACCGAAUCGGUUUUUUGGGGUUUUUUGGUUUUUUGGAAAGUAUUAUGUUACGCCGUUCGGAUCUGCA | -0.903
UGGCCCUGGUGGCAUGCGGGAAGGAAGAGGUGGCCUCAUGGAUCGUGGUGGUCCCGGUGGAAUGUUCAGAGGUGGCCGUGGUGGAGACAG | 0.7
ACCAUGCAGGUGGGCAGCUUUGGGAAGUGGGGCAAGGGGGGGAUAGGGAGGGGGGUAACACUUUGGGAACAGGUGGUCCCAGGUCGUUUC | 1.43
AAGUCCUGUGCUACACAUCGUAUGUACCGAAUCGGGUGGGAAAAAGGGAAAAAGGGAAAGUAUUAUGUUACGCCGUUCGGAUCUGCACUU | 0.0551
CAAGUCCUGUGCUACACAUCGUAUGUACCGAAUCGGUUUUUGGAGGAAAAAAAGGAAAGUAUUAUGUUACGCCGUUCGGAUCUGCACUUC | -0.554
UGGCCCUGGUGGCAUGCGGGGAGGAAGAGGUGGCCUCAUGGAUCGUGGUGGUCCCGGCGGAAUGUUCAGAGGUGGCCGUGGUGGAGACAG | 0.0161
AGUCCUGUGCUACACAUCGUAUGUACCGAAUCGGUUUUUUUGGUUUUUGGAAAAAGGAAAGUAUUAUGUUACGCCGUUCGGAUCUGCACU | -1.52
CUGUGCUACACAUCGUAUGUACCGAAUCGGGUUUUUUUGGGGUUUUUUUGGUUUUUUUGGGAAAGUAUUAUGUUACGCCGUUCGGAUCUG | -0.945
CACAGACAACACGCACCCACACAGACACAGAGGGAAGGGGUUGGGAUGGGGACAGGGUGCACAGCAGGGCUGGGUAGGACCCCAGCCCCU | 1.98
CUGUGCUACACAUCGUAUGUACCGAAUCGGGGUUUUUUUGGGUUUUUUUGGUUUUUUUGGGAAAGUAUUAUGUUACGCCGUUCGGAUCUG | -1.04

Other studies, line by line
Substance | target | test | system | setting | scale | endpoint | value
PhoQ, residues 284 288 289 292 302 303 SNSSNI | PhoP, residues 12 14 15 18 19 QWHVF (Escherichia coli, UniProt P23836) | Sort-seq, measured: YFP reporter | E. coli | PhoQ-PhoP variant library, with: 10 µM Mg2+ | baseline: high Mg2+ state, higher = stronger signaling | fold induction | 1.21

Some of these lines once more (series 2):
Strand | log fluorescence [z-score]
TTAGGACTGGGGAATGGGTTAGTGCTA | -0.403
GACGGTATCGGGACTGGGGAAGTGCTA | 1.27
CCAGCAGGGTTAGGCTTGCTGTGCTAG | -0.748
CATCATTTTTCCCTCTGGAAGTGCTAG | 1.08
